Results of several laboratories.
Lines come from different studies, so protocols differ. ± marks the error that the study gave.

SMILES = COc1ccc(S(=O)(=O)Nc2ccc(NS(=O)(=O)c3ccc(OC)cc3)c3ccccc23)cc1; organism = Salmonella typhimurium; test = mini-Ames test; system = TA98 and TA100; conditions = 100 µM, 90 min, added: S9 liver fraction; scale = relative to: vehicle control; endpoint = revertant increase; result = > 2 fold
SMILES = Cc1cc(/C=C/C#N)cc(C)c1Oc1nc(NC2CCN(Cc3ccc(C(N)=O)cc3)CC2)nc2ncccc12; organism = HIV-1; system = TZM-bl, NL4-3 wild type; scale = relative to: CC50 over EC50; endpoint = selectivity index; result = < 812
SMILES = N=C(N)c1ccc(-c2ccc(-c3cccs3)s2)cc1; organism = Salmonella typhimurium; test = liquid broth OD; system = TA1535; conditions = 12.5 µM, 15 h; scale = relative to: growth; endpoint = viability; result = 92.1 ± 2.3%
SMILES = Cc1cc(C#N)cc(C)c1Oc1nc(NC2CCN(Cc3ccc(F)cc3)CC2)nc2ccccc12; organism = HIV-1; system = TZM-bl, NL4-3 wild type; scale = relative to: CC50 over EC50; endpoint = selectivity index; result = > 8.87
SMILES = N#Cc1ccc(-c2ccc(-c3cccs3)o2)cc1; organism = Salmonella typhimurium; test = liquid broth OD; system = TA1535; conditions = 100 µM, 15 h; scale = relative to: growth; endpoint = viability; result = 99.1 ± 8.7%
SMILES = C=CCC1=C[C@]2(C[C@H](O)C(C)(C)O2)C2=C(C[C@H]3C[C@@H]4[C@@H](C[C@@]3(C)O2)C(=C)CCCC4(C)C)C1=O; organism = coxsackievirus B3; test = cytopathic effect; system = Vero, Nancy; scale = relative to: CC50 over IC50; endpoint = selectivity index; result = 2.2
SMILES = Cc1cc(C#N)cc(C)c1Oc1nc(NC2CCN(Cc3ccc(C(N)=O)cc3)CC2)nc2cccnc12; organism = HIV-1; system = TZM-bl, NL4-3 wild type; scale = relative to: CC50 over EC50; endpoint = selectivity index; result = 25400
SMILES = COc1ccc(CNc2nc(N3CCC[C@H]3CO)ncc2C(=O)NN)cc1Cl; organism = Salmonella typhimurium; test = Ames test; system = TA98, TA100, TA1535, TA102, TA97a; conditions = 62.5 to 1000 µg/plate, with and without S9; endpoint = mutagenicity; result = negative
SMILES = N#Cc1ccc(-c2ccc(-c3cccs3)s2)cc1; organism = Salmonella typhimurium; test = liquid broth OD; system = TA1535; conditions = 12.5 µM, 15 h; scale = relative to: growth; endpoint = viability; result = 111 ± 6.1%
SMILES = CN(C)C(CNC(=O)Nc1cc(C(F)(F)F)ccc1N1CCOCC1)c1ccncc1 (stereo not drawn); organism = Salmonella typhimurium and Escherichia coli; test = Mini-Ames; system = TA98, TA100, TA1535, TA1537, WP2 uvrA pKM101; conditions = concentration not given; endpoint = mutagenicity; result = negative
SMILES = Cc1cc(C#N)cc(C)c1Oc1nc(NC2CCN(Cc3ccccc3C#N)CC2)nc2ccccc12; organism = HIV-1; system = TZM-bl, NL4-3 wild type; scale = relative to: CC50 over EC50; endpoint = selectivity index; result = > 9.21
SMILES = N=C(N)c1ccc(-c2ccc(-c3cccs3)o2)nc1; organism = Salmonella typhimurium; test = liquid broth OD; system = TA1535; conditions = 100 µM, 15 h; scale = relative to: growth; endpoint = viability; result = 87.6 ± 8.7%
SMILES = C=CCC1=C[C@@]2(C[C@@H](O)C(C)(C)O2)C2=C(C[C@H]3C[C@H]4C(=C)CCCC(C)(C)[C@@H]4C[C@@]3(C)O2)C1=O; organism = coxsackievirus B3; test = cytopathic effect; system = Vero, Nancy; scale = relative to: CC50 over IC50; endpoint = selectivity index; result = 1.7
SMILES = N=C(N)c1ccc(-c2ccc(-c3cccs3)o2)cc1; organism = Salmonella typhimurium; test = liquid broth OD; system = TA1535; conditions = 100 µM, 15 h; scale = relative to: growth; endpoint = viability; result = 94.7 ± 6.5%
SMILES = Cc1cc(/C=C/C#N)cc(C)c1Oc1nc(NC2CCN(Cc3ccc(S(N)(=O)=O)cc3)CC2)nc2ncccc12; organism = HIV-1; system = TZM-bl, NL4-3 wild type; scale = relative to: CC50 over EC50; endpoint = selectivity index; result = > 7900

For quick reference, copied from above:
SMILES = Cc1cc(C#N)cc(C)c1Oc1nc(NC2CCN(Cc3ccc(F)cc3)CC2)nc2ccccc12; organism = HIV-1; system = TZM-bl, NL4-3 wild type; scale = relative to: CC50 over EC50; endpoint = selectivity index; result = > 8.87
SMILES = N#Cc1ccc(-c2ccc(-c3cccs3)o2)cc1; organism = Salmonella typhimurium; test = liquid broth OD; system = TA1535; conditions = 100 µM, 15 h; scale = relative to: growth; endpoint = viability; result = 99.1 ± 8.7%
